Experimental data pooled from the literature.
Numbers after ± are the reported error.

CC(C)=CCC[C@](C)(O[C@@H]1O[C@H](CO[C@@H]2O[C@H](CO)[C@@H](O)[C@H](O)[C@H]2O)[C@@H](O)[C@H](O)[C@H]1O)[C@H]1CC[C@]2(C)[C@@H]1[C@H](O)C[C@@H]1[C@@]3(C)CC[C@H](O[C@@H]4O[C@H](CO)[C@@H](O)[C@H](O)[C@H]4O[C@@H]4O[C@H](CO)[C@@H](O)[C@H](O)[C@H]4O)C(C)(C)[C@@H]3CC[C@]12C  CL/F (Sprague Dawley rat, male, plasma; oral, 86 mg/kg, in red ginseng extract): 3.33 ± 0.667 mL/min/kg
O=C(/C=C/c1ccc(O)c2c1[C@H](C(=O)O)[C@@H](c1ccc(O)c(O)c1)O2)O[C@H](Cc1ccc(O)c(O)c1)C(=O)O  CL/F (UPLC-MS/MS; Wistar rat, microcirculation dysfunction model, plasma; oral, 100 mg/kg Salvia miltiorrhiza stem-leaf extract FS): 98.3 ± 19.7 mL/min/kg
CC(C)=CCC[C@](C)(O[C@@H]1O[C@H](CO)[C@@H](O)[C@H](O)[C@H]1O)[C@H]1CC[C@]2(C)[C@@H]1[C@H](O)C[C@@H]1[C@@]3(C)CC[C@H](O[C@@H]4O[C@H](CO)[C@@H](O)[C@H](O)[C@H]4O[C@@H]4O[C@H](CO)[C@@H](O)[C@H](O)[C@H]4O)C(C)(C)[C@@H]3CC[C@]12C  CL/F (Sprague Dawley rat, male, plasma; oral, 42 mg/kg, in frozen ginseng extract): 18.3 ± 8.33 mL/min/kg
O=C(O)/C=C/c1ccc(O)c(O)c1  CL/F (UPLC-MS/MS; Wistar rat, microcirculation dysfunction model, plasma; oral, 100 mg/kg Salvia miltiorrhiza stem-leaf extract FT): 6.17 ± 3 mL/min/kg
C=C1[C@H](CO)[C@@H](O)C[C@@H]1n1cnc2c(=O)[nH]c(N)nc21  CL/F (male Sprague-Dawley rat, plasma; oral, 1 mg/kg, added: CdG 1 mg/kg): 121 ± 17.7 mL/min/kg
CCN(CC)Cc1cc(Nc2ccnc3cc(Cl)ccc23)ccc1O  CL/F (rat, Wistar, male, plasma; oral, 60 mg/kg, added: myricetin 5 mg/kg iv): 168 ± 22.7 mL/min/kg
O=C(O)C[C@H](O)C[C@H](O)/C=C/c1c(C2CC2)nc2ccccc2c1-c1ccc(F)cc1  CL/F (male Sprague-Dawley rat (wild type); oral, 5 mg/kg): 42.3 ± 9.55 mL/min/kg
CC(C)=CCC[C@](C)(O[C@@H]1O[C@H](CO)[C@@H](O)[C@H](O)[C@H]1O)[C@H]1CC[C@]2(C)[C@@H]1[C@H](O)C[C@@H]1[C@@]3(C)CC[C@H](O)C(C)(C)[C@@H]3[C@@H](O[C@@H]3O[C@H](CO)[C@@H](O)[C@H](O)[C@H]3O[C@@H]3O[C@@H](C)[C@H](O)[C@@H](O)[C@H]3O)C[C@]12C  CL/F (Sprague Dawley rat, male, plasma; oral, 45 mg/kg, in frozen ginseng extract): 61.7 ± 25 mL/min/kg
C[C@@H]1O[C@@H](OC[C@H]2O[C@@H](Oc3c(-c4ccc(O)c(O)c4)oc4cc(O)cc(O)c4c3=O)[C@H](O)[C@@H](O)[C@@H]2O)[C@H](O)[C@H](O)[C@H]1O  CL/F (UPLC-MS/MS; Wistar rat, microcirculation dysfunction model, plasma; oral, 100 mg/kg Salvia miltiorrhiza stem-leaf extract FT): 268 ± 137 mL/min/kg
CCCC[C@H](NC(C)=O)C(=O)N[C@H]1CCC(=O)NC[C@@H](C(=O)N[C@@H](Cc2c[nH]c3ccccc23)C(N)=O)NC(=O)[C@H](CCCNC(=N)N)NC(=O)[C@@H](Cc2ccccc2)NC(=O)[C@H](Cc2c[nH]cn2)NC1=O  CL/F (CD Sprague Dawley rat, male, plasma; subcutaneous, 5.0 mg/kg daily, day 1): 18.5 mL/min/kg
O=C(/C=C/c1ccc(O)c(O)c1/C=C/c1ccc(O)c(O)c1)O[C@H](Cc1ccc(O)c(O)c1)C(=O)O  CL/F (UPLC-MS/MS; Wistar rat, microcirculation dysfunction model, plasma; oral, 100 mg/kg Salvia miltiorrhiza stem-leaf extract FS): 40.8 ± 19.7 mL/min/kg
N#C[C@]1(CO)O[C@@H](n2cnc3c(=O)[nH]c(N)nc32)C[C@@H]1O  CL/F (male Sprague-Dawley rat, plasma; oral, 1 mg/kg, added: entecavir 1 mg/kg): 128 ± 45.5 mL/min/kg

For quick reference, copied from above:
CC(C)=CCC[C@](C)(O[C@@H]1O[C@H](CO[C@@H]2O[C@H](CO)[C@@H](O)[C@H](O)[C@H]2O)[C@@H](O)[C@H](O)[C@H]1O)[C@H]1CC[C@]2(C)[C@@H]1[C@H](O)C[C@@H]1[C@@]3(C)CC[C@H](O[C@@H]4O[C@H](CO)[C@@H](O)[C@H](O)[C@H]4O[C@@H]4O[C@H](CO)[C@@H](O)[C@H](O)[C@H]4O)C(C)(C)[C@@H]3CC[C@]12C  CL/F (Sprague Dawley rat, male, plasma; oral, 86 mg/kg, in red ginseng extract): 3.33 ± 0.667 mL/min/kg
